# Published values of several laboratories.
# Every numbered part comes from another study and shows a few of its results, in no order.

# Set 1
# Target: Max dimerization protein 1, bHLH-zipper, MAX partner unstated (MXD1, Homo sapiens, UniProt Q05195, residues 56-136)
# Method: protein-binding microarray
# Form: double-stranded DNA, one strand shown
# Matrix: in vitro
# Tested at: not given
# Notes: k-mer, scored over probes, only values ≥0.25
# Reading: higher = stronger binding
# Residues (chain): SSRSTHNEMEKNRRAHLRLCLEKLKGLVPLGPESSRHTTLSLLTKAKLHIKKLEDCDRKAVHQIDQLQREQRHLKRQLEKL
Strand,E-score
ACAACACG,0.351
ACATGCAT,0.375
ACATGTAT,0.361
AGCGTGTC,0.334
CATACATG,0.279
AGAACGTG,0.336
CATGGGAC,0.332
CACGCGTG,0.466
TACCACGA,0.287
ATGGTGTG,0.285
CGTGGCAA,0.275
CGCGTGGC,0.428
CTCGTGCA,0.396
ACGTGAGA,0.343
CATGGCTC,0.269
CAGCACGA,0.275
ATGCACGC,0.348

# Set 2
# Target: Fragile X messenger ribonucleoprotein 1, C-terminal low-complexity region (Fmr1, Mus musculus, UniProt P35922)
# Method: RNA Bind-n-Seq
# Form: RNA
# Matrix: in vitro
# Tested at: 200 nM
# Notes: whole 134-nt RNA, ends assumed
# Added: 150 mM KCl
# Reference: input library
# Reading: higher = stronger binding
# Shared flanks, not repeated: GGGAGUUCUACAGUCCGACGAUC … UGGAAUUCUCGGGUGUCAAGG
Strand,log2 enrichment
GCAGGAAGUAAAAACAAAUGGUAAUGCUUCGGAUAGUGGCAGGGGUGGGGGUUGCUAAGGAAAGGGUGGGAUGGGAGUGGGUAAAGAGUU,0.192
UGGGAGGUGGAUUUUGUUUAUUUUUUUAGCUCAUUUCCAGGGGUGGGAAUUUUUUUUUAAUAUGUGUCAUGGAUAAAGUUGUUUUUGAAA,0.528
UUCCAACAGUUAUGGGAUCCCAGAACCUGCUCAUGCAUACGCUCAACCUCAGACCACAACUCCUCUACCUGCAGUUUCCGGUUCUCCUGG,0.2
UGGGAGGUGGAUUUUGAUUAUUUUUUUAGCUCAUUUCCAGGGGUGGGAAUUUUUUUUUAAUAUGUGUCAUGAAUAAAGUUGUUUUUGAAA,0.221
AAGUCCUGUGCUACACAUCGUAUGUACCGAAUCGGCCCCGGGCCCCGGGGCCCCGGAAAGUAUUAUGUUACGCCGUUCGGAUCUGCACUU,-0.559
CUCAACGUUGACAGUAAUGAACAAGGCUCCUAUGUAGUGGCCAUGGAAACCUUUACCAACUUAGGACCCAUUGUCGAUAUGUGCGUGGUG,-0.438
UCUUGUAUGACUUAACCCCUGUUUCUAAUACAGGGGCCGCUCUCCUCAGCCUCCUGCUGAAGAGGAUGAAGAUGACUUUGAUGAUACCCU,-0.125
GUCCUGUGCUACACAUCGUAUGUACCGAAUCGGGGUUUUUGGGGUUUUUGGUUUUUGGAAAGUAUUAUGUUACGCCGUUCGGAUCUGCAC,-0.126
UCAAGUCCUGUGCUACACAUCGUAUGUACCGAAUCGGAGGUUUGGAAAAAAAGGAAAGUAUUAUGUUACGCCGUUCGGAUCUGCACUUCC,-0.921

# Set 3
# Target: RNA binding protein fox-1 homolog 2, RRM domain, GST-SBP tag (RBFOX2, Homo sapiens, UniProt O43251-10, residues 100-194)
# Method: RNA Bind-n-Seq
# Form: RNA
# Matrix: in vitro
# Tested at: 365 nM
# Notes: natural RNA segment, single round, ends assumed
# Reference: no-protein control
# Reading: higher = stronger binding
# Shared flanks, not repeated: GGGAGUUCUACAGUCCGACGAUC … UGGAAUUCUCGGGUGCCAA
# Construct (chain): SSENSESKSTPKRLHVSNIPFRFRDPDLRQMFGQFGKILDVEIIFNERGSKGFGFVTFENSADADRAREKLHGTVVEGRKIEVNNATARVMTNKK
Strand,RBNS enrichment (R)
UCUCAGCUACUCCAGGGCACCUGACUGCUCUGAGGAGAGGGAAGAAGGCCUGCUGGGGCUUUCCAUGGCCUUCUGCUGUUUCUCGCCAACACUACCCAGGACUCUUGCUA,0.472
UUUUACAUUCUUCUGCUGCAUCCAUACAAUGCUCCACUGCUGUUGAGUGUCCUUUAACUGUGGACCAAAGGCAACCCCUGCAGUGUUUAUAAAACAAUUUUAAGACCAUU,0.569
UGUAGACGUGUUUCAGUGCCUCGUCUGAACAGGAGCCGUUUCACUUCUUUGAAACUCUACAUUUUCCACACGUCUGCUUCAUUUUCAAAAUGAAGGAUGUUUCCCGUAGG,0.342
CAGACGUCUGUCCCGCUGCUCUCUCCCCAUCUCCUACCCCACAUCCUGUCUUAGCCGCAGUCUCCAGAACCCAUGAUGAACUGUGAUCUGCCGUGGUCCUGCCGUGGUCC,0.834
CCUGCUGAACGGGGCUGCAAGGCCAAGGCUCCUUAAGGGAGGUCCUUACCUCCAAUCCAGUUAGAGCAAUAACCACUUUUUAAAUGUAAAAUAAAGACAAAUGAAAAGGC,0.226
AGUGUAUUCUGAUGUCUUAAGUGGUCAGAAAAGAGCACUAAGAAAUGGAUCUAUAUAACCAAUGAGUUGAUUCUCUUAAAAAAAUAAUAAACCCCCCUCUAUUAUGUGGG,0.492
UUUCUGACCUUUGGCCUGUUCUAGUGCCUAAUCUCCAUUAUUAAAUACUGGCUUCUCCCAACUUCCUAAAAGGAAGUUUCCUCUUUAACUUAGGGAAGCCUUACCUACCA,0.236
GCUGCACGAGCUCGGGCUGGACGAGCCGCUGAUGACACCACUGCGGGAGCGCUUCCUGCAGCCGCUGAUGGCCCUGCUGUACCCUGACUGUGGCGGGGGCCGGCUCGACA,1.32

# Set 4
# Target: Centromere-binding protein 1, full length, His-tagged (CBF1, Saccharomyces cerevisiae, UniProt P17106, residues 1-351)
# Chain of UniProt P17106 (whole entry, looked up): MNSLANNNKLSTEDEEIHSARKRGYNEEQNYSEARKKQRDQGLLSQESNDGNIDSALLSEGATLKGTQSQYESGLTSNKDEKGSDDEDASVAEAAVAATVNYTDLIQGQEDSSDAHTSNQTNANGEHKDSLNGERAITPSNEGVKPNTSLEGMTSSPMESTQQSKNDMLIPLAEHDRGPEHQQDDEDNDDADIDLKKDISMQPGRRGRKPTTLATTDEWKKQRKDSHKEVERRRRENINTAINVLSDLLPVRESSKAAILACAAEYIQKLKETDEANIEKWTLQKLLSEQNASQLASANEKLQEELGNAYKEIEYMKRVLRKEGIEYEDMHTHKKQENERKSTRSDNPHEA
# Method: competition protein-binding microarray
# Form: double-stranded DNA, one strand shown
# Matrix: in vitro
# Tested at: 2 µM
# Notes: whole 60-bp probe, lowest competitor level
# Added: Pho4 competitor, 0.05 µM
# Reading: higher = stronger binding
# Shared flanks, not repeated: … GTCTTGATTCGCTTGACGCTGCTG
Strand,fluorescence intensity
TCCAGACGCTGTGGACACGTTAGACATCACCCTTGT,74.7 a.u.
TTCGAGACGAAGCATCACCTGATGGTAAACTATTGT,531 a.u.
GACCTTATCAAAAAGCACGCTGCCGGCCAAGAAGTG,80.3 a.u.
CATGAAATTGCTTACGTCGTGCCAGATTACATATAG,96.4 a.u.
TGGACCATCCAAGTACTCGTGAAGATCCGAGCCACA,67.7 a.u.
GTAAGACCACAATCCATCGTGTCGGCCCCATGTCGG,51.5 a.u.
GACCGTCAAAGCGTCCACATGAGATCCAATGACACC,105 a.u.
GAACTAATATTCCGTCACGTCACTTAAGTGCAAGGT,182 a.u.
TGTCGCTCTCCCAGCCACGCTCGAAGGACTTGCTGA,51 a.u.
TGCGCAACAACTTGGCAAGTGGGTGTATGTCTAGAA,84.2 a.u.
TCCATTCGAGACCTGTCCGTGATGGCGAGGACAAGA,65.2 a.u.
CGTCCTAGTGATTGGGCAGTGGGTGCCATGAGGAAG,77.7 a.u.
AAATTACTAAGTTGAGAGGTGGGTGACGCCGTATGA,69.2 a.u.
CTTTCCCGATCTTGTCCCGTGGGTGTAGCACATTTG,104 a.u.
CTTTCCCGATCTTGTCACAATACTTTAGCACATTTG,85.4 a.u.
AAATTACTAAGTTGTCACAGCACTTACCCCGTATGA,67.2 a.u.
GGTCGCACACACACCCCCGTGATGGGCGATATATAG,237 a.u.
CGCTACCAACTGCGCCATGTGCCCTGATGACTGTTG,88.7 a.u.
GGCAGGACGGACTTCCACGTGGAACTTAGGCATTCC,318 a.u.

# Some of these lines once more (set 1):
Strand,E-score
CGTGGCAA,0.275
CTCGTGCA,0.396
CACGCGTG,0.466
CATACATG,0.279
ATGGTGTG,0.285
AGAACGTG,0.336
